Results collected from several papers.
Parts stem from different laboratories: compare values within a part only. Substitutions count along the parent as printed.
Chain of UniProt P42336 (whole entry, unmodified, looked up): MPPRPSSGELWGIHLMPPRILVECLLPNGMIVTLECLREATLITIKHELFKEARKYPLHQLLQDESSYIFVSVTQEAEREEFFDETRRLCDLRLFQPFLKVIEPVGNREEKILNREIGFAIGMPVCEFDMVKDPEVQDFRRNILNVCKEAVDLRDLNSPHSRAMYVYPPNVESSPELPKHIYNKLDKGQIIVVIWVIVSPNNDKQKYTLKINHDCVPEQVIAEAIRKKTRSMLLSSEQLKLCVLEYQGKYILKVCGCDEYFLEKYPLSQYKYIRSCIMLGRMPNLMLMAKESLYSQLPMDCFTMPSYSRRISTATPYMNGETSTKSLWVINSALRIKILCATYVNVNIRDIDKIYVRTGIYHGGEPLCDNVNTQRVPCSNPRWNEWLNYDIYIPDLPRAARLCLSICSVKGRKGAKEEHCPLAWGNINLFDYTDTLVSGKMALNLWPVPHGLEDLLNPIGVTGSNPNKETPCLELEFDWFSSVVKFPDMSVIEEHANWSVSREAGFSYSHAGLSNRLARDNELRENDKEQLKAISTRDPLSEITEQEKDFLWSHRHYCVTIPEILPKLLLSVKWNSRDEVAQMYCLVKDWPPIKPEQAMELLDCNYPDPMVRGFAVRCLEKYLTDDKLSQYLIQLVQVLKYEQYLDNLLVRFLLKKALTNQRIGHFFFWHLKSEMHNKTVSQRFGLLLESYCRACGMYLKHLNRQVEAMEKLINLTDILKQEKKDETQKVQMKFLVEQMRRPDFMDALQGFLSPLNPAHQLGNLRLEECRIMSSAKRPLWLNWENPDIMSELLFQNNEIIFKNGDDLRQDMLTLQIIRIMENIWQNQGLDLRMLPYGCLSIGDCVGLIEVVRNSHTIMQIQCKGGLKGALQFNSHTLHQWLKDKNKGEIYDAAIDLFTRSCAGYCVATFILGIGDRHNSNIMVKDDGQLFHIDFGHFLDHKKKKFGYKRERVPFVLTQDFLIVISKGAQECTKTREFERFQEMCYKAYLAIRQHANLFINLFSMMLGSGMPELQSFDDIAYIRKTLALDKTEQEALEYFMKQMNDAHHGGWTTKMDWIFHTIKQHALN
Chain of UniProt O00750 (whole entry, looked up): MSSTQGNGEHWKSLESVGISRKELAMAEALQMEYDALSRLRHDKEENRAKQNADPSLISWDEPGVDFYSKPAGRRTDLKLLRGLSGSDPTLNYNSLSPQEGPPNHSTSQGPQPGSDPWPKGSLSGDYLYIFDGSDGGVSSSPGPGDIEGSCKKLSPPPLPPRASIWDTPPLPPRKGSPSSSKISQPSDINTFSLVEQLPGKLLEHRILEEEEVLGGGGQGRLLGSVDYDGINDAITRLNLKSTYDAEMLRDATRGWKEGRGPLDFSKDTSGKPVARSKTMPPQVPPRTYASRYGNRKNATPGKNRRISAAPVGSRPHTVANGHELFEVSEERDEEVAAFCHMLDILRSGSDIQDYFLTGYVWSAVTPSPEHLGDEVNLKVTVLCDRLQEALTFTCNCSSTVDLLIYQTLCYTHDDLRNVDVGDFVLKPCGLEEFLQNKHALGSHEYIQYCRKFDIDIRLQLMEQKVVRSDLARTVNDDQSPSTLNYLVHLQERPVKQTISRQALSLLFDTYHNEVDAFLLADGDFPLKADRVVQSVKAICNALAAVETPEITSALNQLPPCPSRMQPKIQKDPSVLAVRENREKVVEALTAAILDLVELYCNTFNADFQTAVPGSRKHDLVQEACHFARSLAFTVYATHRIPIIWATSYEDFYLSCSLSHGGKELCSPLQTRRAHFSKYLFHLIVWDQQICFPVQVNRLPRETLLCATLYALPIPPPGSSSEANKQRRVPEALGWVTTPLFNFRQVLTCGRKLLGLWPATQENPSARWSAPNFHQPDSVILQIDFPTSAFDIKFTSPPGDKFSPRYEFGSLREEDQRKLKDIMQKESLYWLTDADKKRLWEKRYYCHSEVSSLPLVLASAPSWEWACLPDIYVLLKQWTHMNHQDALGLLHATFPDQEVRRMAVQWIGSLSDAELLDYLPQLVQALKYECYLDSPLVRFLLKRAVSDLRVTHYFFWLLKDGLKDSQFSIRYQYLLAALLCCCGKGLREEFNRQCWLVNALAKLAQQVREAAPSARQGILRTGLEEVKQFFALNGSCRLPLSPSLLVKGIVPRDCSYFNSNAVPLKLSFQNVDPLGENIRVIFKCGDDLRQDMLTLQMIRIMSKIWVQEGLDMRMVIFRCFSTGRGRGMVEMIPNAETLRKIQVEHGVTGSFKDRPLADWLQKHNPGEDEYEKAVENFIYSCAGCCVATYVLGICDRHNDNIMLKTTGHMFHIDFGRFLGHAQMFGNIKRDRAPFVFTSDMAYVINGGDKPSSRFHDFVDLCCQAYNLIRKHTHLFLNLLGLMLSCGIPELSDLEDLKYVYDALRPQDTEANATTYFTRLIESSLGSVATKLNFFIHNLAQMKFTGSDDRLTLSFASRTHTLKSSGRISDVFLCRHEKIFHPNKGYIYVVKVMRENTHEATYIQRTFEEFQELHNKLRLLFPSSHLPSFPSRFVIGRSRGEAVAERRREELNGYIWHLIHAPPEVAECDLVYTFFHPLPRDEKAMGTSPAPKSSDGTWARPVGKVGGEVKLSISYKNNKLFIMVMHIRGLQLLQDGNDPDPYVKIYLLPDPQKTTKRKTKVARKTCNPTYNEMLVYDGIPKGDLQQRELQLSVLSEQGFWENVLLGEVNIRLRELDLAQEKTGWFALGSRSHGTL
Chain of UniProt P49759 (whole entry, looked up): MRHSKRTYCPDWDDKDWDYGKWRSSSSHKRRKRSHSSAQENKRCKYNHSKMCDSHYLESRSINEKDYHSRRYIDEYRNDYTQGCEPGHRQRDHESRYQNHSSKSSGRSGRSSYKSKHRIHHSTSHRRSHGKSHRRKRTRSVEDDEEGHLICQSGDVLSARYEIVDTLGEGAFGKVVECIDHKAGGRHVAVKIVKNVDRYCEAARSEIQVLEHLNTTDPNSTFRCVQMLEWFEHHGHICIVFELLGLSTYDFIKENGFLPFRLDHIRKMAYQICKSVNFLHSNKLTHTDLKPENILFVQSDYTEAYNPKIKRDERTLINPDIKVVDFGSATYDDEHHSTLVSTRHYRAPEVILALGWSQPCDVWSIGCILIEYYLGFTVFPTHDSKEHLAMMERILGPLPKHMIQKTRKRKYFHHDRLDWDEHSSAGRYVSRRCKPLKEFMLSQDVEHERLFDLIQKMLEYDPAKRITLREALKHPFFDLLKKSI
Chain of UniProt Q13976 (whole entry, looked up): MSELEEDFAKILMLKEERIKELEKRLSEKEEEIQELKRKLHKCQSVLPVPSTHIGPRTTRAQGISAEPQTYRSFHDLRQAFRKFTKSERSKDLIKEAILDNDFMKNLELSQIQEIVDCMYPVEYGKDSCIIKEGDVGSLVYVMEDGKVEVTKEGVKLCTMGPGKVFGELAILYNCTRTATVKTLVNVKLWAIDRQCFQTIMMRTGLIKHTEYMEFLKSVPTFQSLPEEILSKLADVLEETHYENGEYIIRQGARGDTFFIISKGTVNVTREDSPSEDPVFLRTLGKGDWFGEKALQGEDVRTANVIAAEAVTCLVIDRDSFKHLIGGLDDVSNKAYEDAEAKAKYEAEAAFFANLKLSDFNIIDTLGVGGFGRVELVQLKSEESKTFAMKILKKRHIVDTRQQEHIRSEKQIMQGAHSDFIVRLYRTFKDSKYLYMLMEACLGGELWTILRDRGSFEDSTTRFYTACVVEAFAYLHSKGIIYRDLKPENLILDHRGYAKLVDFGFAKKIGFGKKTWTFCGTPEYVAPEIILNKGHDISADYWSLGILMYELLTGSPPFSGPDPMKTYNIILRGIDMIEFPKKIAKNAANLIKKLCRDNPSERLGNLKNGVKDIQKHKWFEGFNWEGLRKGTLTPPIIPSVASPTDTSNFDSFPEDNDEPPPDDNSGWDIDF

Set 1 — observed: enzyme activity; mode: inhibitor; concentration: 0.5 µM; baseline: control
Target: Homeodomain-interacting protein kinase 3 (HIPK3, Homo sapiens, UniProt Q9H422)
Chain of UniProt Q9H422 (whole entry, looked up): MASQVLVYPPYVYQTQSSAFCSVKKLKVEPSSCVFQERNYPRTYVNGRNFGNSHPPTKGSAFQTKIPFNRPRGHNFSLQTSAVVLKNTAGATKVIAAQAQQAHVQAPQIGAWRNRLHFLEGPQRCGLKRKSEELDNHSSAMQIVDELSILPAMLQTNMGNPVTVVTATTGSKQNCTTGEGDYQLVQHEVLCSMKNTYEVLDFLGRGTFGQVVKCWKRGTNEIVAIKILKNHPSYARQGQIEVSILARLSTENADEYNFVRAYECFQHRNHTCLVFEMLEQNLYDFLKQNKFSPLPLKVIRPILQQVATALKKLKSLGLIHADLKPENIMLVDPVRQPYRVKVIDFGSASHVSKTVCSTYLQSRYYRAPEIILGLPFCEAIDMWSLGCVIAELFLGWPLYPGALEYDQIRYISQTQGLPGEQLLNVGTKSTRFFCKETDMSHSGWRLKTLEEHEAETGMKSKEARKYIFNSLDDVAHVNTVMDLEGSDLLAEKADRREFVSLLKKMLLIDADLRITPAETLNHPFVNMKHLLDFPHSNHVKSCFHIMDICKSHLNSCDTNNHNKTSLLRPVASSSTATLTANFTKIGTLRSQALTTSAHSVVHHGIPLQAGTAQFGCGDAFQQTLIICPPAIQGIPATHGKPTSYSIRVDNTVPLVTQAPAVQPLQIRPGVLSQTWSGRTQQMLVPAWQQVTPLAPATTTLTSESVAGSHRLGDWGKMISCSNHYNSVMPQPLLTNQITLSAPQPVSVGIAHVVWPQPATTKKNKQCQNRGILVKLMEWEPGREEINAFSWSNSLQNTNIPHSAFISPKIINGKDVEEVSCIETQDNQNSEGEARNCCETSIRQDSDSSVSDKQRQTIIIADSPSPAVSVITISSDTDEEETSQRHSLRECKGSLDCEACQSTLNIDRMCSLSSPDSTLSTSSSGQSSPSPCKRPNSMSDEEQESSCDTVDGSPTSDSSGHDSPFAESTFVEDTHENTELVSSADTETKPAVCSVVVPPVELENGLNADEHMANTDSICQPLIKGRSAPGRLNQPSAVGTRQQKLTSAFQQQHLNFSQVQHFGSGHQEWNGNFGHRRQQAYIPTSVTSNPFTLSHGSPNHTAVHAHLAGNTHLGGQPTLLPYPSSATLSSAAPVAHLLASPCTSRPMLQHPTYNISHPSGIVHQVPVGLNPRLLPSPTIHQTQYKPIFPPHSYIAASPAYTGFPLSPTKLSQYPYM
`OCC(O)CCON=C1C(c2c(O)[nH]c3ccccc23)=Nc2ccccc21` (stereo not drawn) has a remaining activity of 66.2%.
`N#CC(C#N)=C(N)/C(C#N)=C/c1ccc(O)cc1` gave a remaining activity of 102%.
With `Cc1ccc(NC(=O)c2ccc(CN3CCN(C)CC3)cc2)cc1Nc1nc(-c2cccnc2)cs1` the remaining activity was 101%.
`O=C1NC(=O)C(c2cn(CCCn3ccnc3)c3ccccc23)=C1Nc1ccccc1` has a remaining activity of 102%.
The remaining activity of `CCOC(=O)c1c(C)[nH]c(/C=C2\C(=O)Nc3ccccc32)c1C` is reported as 94.5%.
`Cn1sc(=O)n(Cc2ccccc2)c1=O` has a remaining activity of 94.9%.
The remaining activity of `CO[C@H]1C[C@@H]2CC[C@@H](C)[C@@](O)(O2)C(=O)C(=O)N2CCCC[C@H]2C(=O)O[C@H]([C@H](C)C[C@@H]2CC[C@@H](O)[C@H](OC)C2)CC(=O)[C@H](C)/C=C(\C)[C@@H](O)[C@@H](OC)C(=O)[C@H](C)C[C@H](C)/C=C/C=C/C=C/1C` is reported as 107%.
The remaining activity of `O=C(O)c1ccc2c3c1cccc3c(=O)n1c3ccccc3nc21` is reported as 103%.
The remaining activity of `Nc1[nH]nc2nc3ccccc3nc12` is reported as 97.4%.
The remaining activity of `Oc1ccc(-c2nc(-c3ccncc3)c(-c3ccc(F)cc3)[nH]2)cc1` is reported as 98.3%.
With `COc1ccc(CNC(=O)Nc2ncc([N+](=O)[O-])s2)cc1` the remaining activity was 91.9%.
The remaining activity of `Cn1c2ccccc2c2c3c(c4c5ccccc5n(CCC#N)c4c21)CNC3=O` is reported as 29.8%.
`O=C(CCCc1ccc(-c2ccccc2F)cc1)Nc1ccc(O)cc1` has a remaining activity of 99.4%.

Set 2 — Structure (SMILES): CC(C)(O)c1cncc(-c2nc3ccc(F)cc3n2C2CC2)c1; observed: cell-free assay; method: competition with immobilised ligand; concentration: 1 µM
For Hepatocyte growth factor receptor (MET, Homo sapiens, UniProt P08581): remaining binding read 100%.
The remaining binding was 99% (Rho-associated protein kinase 1 (ROCK1, Homo sapiens, UniProt Q13464)).
The remaining binding was 78% (cGMP-dependent protein kinase 1 (PRKG1, Homo sapiens, UniProt Q13976)).
For Phosphatidylinositol 4-phosphate 3-kinase C2 domain-containing subunit beta (PIK3C2B, Homo sapiens, UniProt O00750): remaining binding read 95%.
The remaining binding was 100% (Serine/threonine-protein kinase PLK2 (PLK2, Homo sapiens, UniProt Q9NYY3)).
For Phosphatidylinositol 4,5-bisphosphate 3-kinase catalytic subunit alpha isoform (PIK3CA, Homo sapiens, UniProt P42336, H1047Y): remaining binding read 90%.
It gave 100% for remaining binding (Citron Rho-interacting kinase (CIT, Homo sapiens, UniProt O14578)).
For 1-phosphatidylinositol 3-phosphate 5-kinase (PIKFYVE, Homo sapiens, UniProt Q9Y2I7): remaining binding read 99%.
For Serine/threonine-protein kinase TAO1 (TAOK1, Homo sapiens, UniProt Q7L7X3): remaining binding read 100%.
Dual specificity protein kinase CLK1 (CLK1, Homo sapiens, UniProt P49759) — remaining binding: 94%.
It gave 80% for remaining binding (Myosin light chain kinase, smooth muscle (MYLK, Homo sapiens, UniProt Q15746)).
Mitogen-activated protein kinase kinase kinase kinase 5 (MAP4K5, Homo sapiens, UniProt Q9Y4K4) — remaining binding: 92%.
It gave 100% for remaining binding (Mast/stem cell growth factor receptor Kit (KIT, Homo sapiens, UniProt P10721, L576P)).

Set 3 — target: CCNA1, cyclin fold, Cln2 fusion (human); method: yeast growth competition, sequencing; sample: yeast; setting: weak parent motif; baseline: not given; direction: higher = stronger binding
Parent: BRCA2 docking peptide (human); PSIKRNLLNEFDR
`N6Q`: “normalised enrichment score” 0.124.
For `N9G`, “normalised enrichment score” read 0.246.
Under “normalised enrichment score”, `L8E` is recorded as 0.391.
Under “normalised enrichment score”, `L8K` is recorded as 0.38.
`R5F` — result for “normalised enrichment score”: -0.052.
For `E10L`, “normalised enrichment score” read 0.286.
Under “normalised enrichment score”, `L8H` is recorded as 0.16.
Under “normalised enrichment score”, `F11H` is recorded as 0.0798.

Set 4 — method: DHFR PCA, dose-response; sample: yeast; with: (+)-ABA, dose series; direction: lower = more sensitive
Target: ABI1, truncated, D143A, DHFR fusion (Arabidopsis thaliana, UniProt P49597)
Setting: Hill fit, not affinity, not high confidence
Parent: PYL1, truncated, DHFR fusion (Arabidopsis thaliana, UniProt Q8VZS8); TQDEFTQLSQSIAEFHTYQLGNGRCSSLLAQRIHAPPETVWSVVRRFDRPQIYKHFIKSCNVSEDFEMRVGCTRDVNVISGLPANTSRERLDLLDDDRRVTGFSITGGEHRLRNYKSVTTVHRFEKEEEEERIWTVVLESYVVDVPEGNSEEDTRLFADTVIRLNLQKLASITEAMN
`F47D` has an ABA EC50 of 10.1 µM.
`L166P` gave an ABA EC50 of 1.7 µM.
For `I33R`, the ABA EC50 was 84.5 µM.
`E89T` gave an ABA EC50 of 292 µM.
For `H110V`, the ABA EC50 was 267 µM.
`E89G` has an ABA EC50 of 209 µM.
`E89C` has an ABA EC50 of 8.5 µM.
For `G81F`, the ABA EC50 was 217 µM.
